Assay results of several laboratories.
Each numbered part is a random draw from the data of one study; scales do not carry over between parts.

Sample 1
Target: Interferon regulatory factor 7, full length, phosphomimetic (IRF7, Homo sapiens, UniProt Q92985, residues 1-503, S101K/S471D/S472D/S475D/S476D/S477D/S483D/S484D/S487D)
Chain of UniProt Q92985 (whole entry, unmodified, looked up): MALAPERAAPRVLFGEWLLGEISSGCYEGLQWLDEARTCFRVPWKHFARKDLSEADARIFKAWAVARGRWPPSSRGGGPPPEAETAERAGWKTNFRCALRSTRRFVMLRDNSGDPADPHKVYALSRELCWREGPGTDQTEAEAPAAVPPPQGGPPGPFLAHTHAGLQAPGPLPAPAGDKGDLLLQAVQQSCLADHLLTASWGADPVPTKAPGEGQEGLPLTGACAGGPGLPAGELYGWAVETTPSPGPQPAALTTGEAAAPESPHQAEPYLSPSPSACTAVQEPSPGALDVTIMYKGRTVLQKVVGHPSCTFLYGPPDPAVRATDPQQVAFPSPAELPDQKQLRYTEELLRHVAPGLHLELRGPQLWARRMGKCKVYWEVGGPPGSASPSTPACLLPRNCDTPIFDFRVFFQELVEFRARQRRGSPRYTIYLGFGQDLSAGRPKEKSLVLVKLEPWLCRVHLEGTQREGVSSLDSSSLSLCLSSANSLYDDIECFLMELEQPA
Technique: protein-binding microarray
Form: double-stranded DNA, one strand shown
Matrix: in vitro
Tested at: 250 nM
Notes: 60-bp whole probe
With: salmon DNA 0.4 mg/ml
Reference: random background probes
Reading: higher = stronger binding
Sequence	log fluorescence
GCCTAGCACTACTACATATCACCTCAATCGTGCTAGGTCTTGATTCGCTTGACGCTGCTG	0.364 z-score
GCCTAGCACTCACGCTTCATCTCCCAGACTGTGCTAGTCTTGATTCGCTTGACGCTGCTG	0.678 z-score
GCCTAGCACTCAACTCTTCCTTTACTACTGTGCTAGGTCTTGATTCGCTTGACGCTGCTG	0.599 z-score

Sample 2
Target: Sal-like protein 4, full length isoform A (SALL4, Homo sapiens, UniProt Q9UJQ4, residues 1-1053)
Chain of UniProt Q9UJQ4 (whole entry, looked up): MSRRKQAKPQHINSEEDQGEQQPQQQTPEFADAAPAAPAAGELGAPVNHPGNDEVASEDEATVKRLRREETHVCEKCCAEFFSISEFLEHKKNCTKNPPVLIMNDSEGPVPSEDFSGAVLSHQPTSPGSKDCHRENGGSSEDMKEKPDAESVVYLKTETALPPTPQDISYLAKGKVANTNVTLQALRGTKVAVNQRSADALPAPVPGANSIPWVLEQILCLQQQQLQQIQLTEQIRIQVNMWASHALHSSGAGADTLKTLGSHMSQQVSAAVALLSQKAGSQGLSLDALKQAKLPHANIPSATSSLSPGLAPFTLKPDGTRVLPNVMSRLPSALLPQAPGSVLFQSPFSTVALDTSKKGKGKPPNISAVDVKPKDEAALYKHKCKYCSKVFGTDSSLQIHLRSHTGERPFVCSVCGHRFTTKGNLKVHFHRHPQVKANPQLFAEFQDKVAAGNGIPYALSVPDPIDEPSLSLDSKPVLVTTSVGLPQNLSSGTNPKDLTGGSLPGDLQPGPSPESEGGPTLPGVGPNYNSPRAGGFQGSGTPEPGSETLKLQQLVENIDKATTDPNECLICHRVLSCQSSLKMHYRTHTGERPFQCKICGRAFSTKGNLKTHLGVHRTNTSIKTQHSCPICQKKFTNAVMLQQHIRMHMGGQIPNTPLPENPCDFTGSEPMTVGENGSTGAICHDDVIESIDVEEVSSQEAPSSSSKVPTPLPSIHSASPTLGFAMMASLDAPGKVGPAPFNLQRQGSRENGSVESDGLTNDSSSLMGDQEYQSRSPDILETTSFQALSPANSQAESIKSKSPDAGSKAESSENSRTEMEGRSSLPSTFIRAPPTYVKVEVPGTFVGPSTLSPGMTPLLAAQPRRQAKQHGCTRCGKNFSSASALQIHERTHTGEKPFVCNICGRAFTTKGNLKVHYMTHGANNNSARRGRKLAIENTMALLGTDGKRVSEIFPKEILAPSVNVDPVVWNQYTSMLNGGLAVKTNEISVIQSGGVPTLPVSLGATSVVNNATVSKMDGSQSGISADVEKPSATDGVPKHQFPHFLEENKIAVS
Technique: universal PBM
Form: double-stranded DNA, one strand shown
Matrix: in vitro
Tested at: 600 nM
Notes: 8-mer, flanks averaged, mean of replicates
Reading: higher = stronger binding
Sequence	E-score
ACGGAATC	-0.0169
GCGACGAA	-0.109
GCCTTCTA	-0.0439

Sample 3
Target: RNA binding protein fox-1 homolog 2, RRM domain, GST-SBP tag (RBFOX2, Homo sapiens, UniProt O43251-10, residues 100-194)
Technique: RNA Bind-n-Seq
Form: RNA
Matrix: in vitro
Tested at: 365 nM
Notes: natural RNA segment, single round, ends assumed
Reference: no-protein control
Reading: higher = stronger binding
Target sequence (chain): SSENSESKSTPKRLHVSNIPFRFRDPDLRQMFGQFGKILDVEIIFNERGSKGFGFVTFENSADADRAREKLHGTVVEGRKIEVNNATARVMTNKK
Sequence	RBNS enrichment (R)
GGGAGUUCUACAGUCCGACGAUCUCUCCAUUCUCCAUGUCCAAAAACUUGCUGUCAGUCCAGUUUUUAAUCAGUUUUCUCCUUGAGGCUUGAUCUCCCAUUUCUCUCAUCCCAUUAUAGCUUUUCAUGUAGAUUGGAAUUCUCGGGUGCCAA	0.651
GGGAGUUCUACAGUCCGACGAUCUUUACCUUGAGCACUUGCCUCCUCAGACUUUUAGACCAGUGGUUUACUGUGCCCUUUCUUCCCAUCACCUUGCUCUCUCUGGCUCUGUCUCUUCUUGCUGUCUCUCUCCUUGGAAUUCUCGGGUGCCAA	0.852
GGGAGUUCUACAGUCCGACGAUCUCACUGGGACCCAAUAUAAAGCUGGAGCCAGAGAACUGAGUCCAGAGAAUUGUCCUCUGACCUCCAUGUGCGGUAGCCCACGUGACGCACCCAAUAAUAAUUAAAUAAAUUGGAAUUCUCGGGUGCCAA	0.449
GGGAGUUCUACAGUCCGACGAUCUGAGUCUGCAGGUCCAGUGUGGUUUAGGUCAGUCAGGGGCCAGCUGGCCUCUGACUGCAUUGCUUUAGGUCGUAUUCAAACUCUCUUAAACAUUGUGCCAAGAAACGAUUUGGAAUUCUCGGGUGCCAA	0.35

Further values, each from its own experiment
Substance	target	assay	system	conditions	how to read	quantity	result
PhoQ, residues 284 288 289 292 302 303 SLANKL	PhoP, residues 12 14 15 18 19 IQSYL (Escherichia coli, UniProt P23836)	Sort-seq, refers to: YFP reporter	E. coli	PhoQ-PhoP variant library, with: 10 µM Mg2+	reference: high Mg2+ state, higher = stronger signaling	fold induction	12.8
